Published values of several laboratories.
Each line is one published result; not all experiments were run side by side. ± marks the error that the study gave. Converted amounts (≈) assume the structure as drawn.

CC(=O)NCCCC[C@H](NC(=O)OCC1c2ccccc2-c2ccccc21)C(=O)N[C@@H](CCC(=O)C=[N+]=[N-])C(=O)OC(C)C — compound remaining (metabolic stability; pig, liver; 20 µM, 1 h): < 50%
CN(C)C(=O)c1cc2cnc(Nc3ccc(N4CCNCC4)cn3)nc2n1C1CCCC1 — amount excreted in urine (human, normal renal function, urine; oral, 400 mg single dose, 0 to 144 h): 20.2 mg
CC[C@H](C)[C@H](NC(=O)[C@H](Cc1ccccc1)NC(=O)[C@H](CCC(=O)O)NC(=O)[C@H](CCCCNC(=O)COCCOCCNC(=O)COCCOCCNC(=O)CC[C@H](NC(=O)CCCCCCCCCCCCCCCCC(=O)O)C(=O)O)NC(=O)[C@H](C)NC(=O)[C@H](C)NC(=O)[C@H](CCC(N)=O)NC(=O)CNC(=O)[C@H](CCC(=O)O)NC(=O)[C@H](CC(C)C)NC(=O)[C@H](Cc1ccc(O)cc1)NC(=O)[C@H](CO)NC(=O)[C@H](CO)NC(=O)[C@@H](NC(=O)[C@H](CC(=O)O)NC(=O)[C@H](CO)NC(=O)[C@@H](NC(=O)[C@H](Cc1ccccc1)NC(=O)[C@@H](NC(=O)CNC(=O)[C@H](CCC(=O)O)NC(=O)C(C)(C)NC(=O)[C@@H](N)Cc1cnc[nH]1)[C@@H](C)O)[C@@H](C)O)C(C)C)C(=O)N[C@@H](C)C(=O)N[C@@H](Cc1c[nH]c2ccccc12)C(=O)N[C@@H](CC(C)C)C(=O)N[C@H](C(=O)N[C@@H](CCCNC(=N)N)C(=O)NCC(=O)N[C@@H](CCCNC(=N)N)C(=O)NCC(=O)O)C(C)C — tmax at steady state (Japanese subjects; subcutaneous once weekly, 0.5 mg, median): 30 h
O=C(/C=C/c1ccc(O)c(O)c1/C=C/c1ccc(O)c(O)c1)O[C@H](Cc1ccc(O)c(O)c1)C(=O)O — MRT(0-inf) (UPLC-MS/MS; Wistar rat, microcirculation dysfunction model, plasma; oral, 100 mg/kg Salvia miltiorrhiza stem-leaf extract FS): 29.2 ± 30.6 h
CCOc1ccc(Cc2cc([C@@H]3S[C@H](CO)[C@@H](O)[C@H](O)[C@H]3O)c(OC)cc2C)cc1 — elimination rate constant (human; oral, 5 mg, fasted): 1.89e-05 ± 2.02e-06 s⁻¹
Cn1c(=O)n(C)c2cc(CNCCNc3ccnc4cc(Cl)ccc34)ccc21 — maximum solubility (0.1 M sodium acetate with 0.01% Triton X-100; pH 5.5): 300 µM
O=C(/C=C/c1ccc(O)c2c1[C@H](C(=O)O)[C@@H](c1ccc(O)c(O)c1)O2)O[C@H](Cc1ccc(O)c(O)c1)C(=O)O — MRT(0-inf) (UPLC-MS/MS; Wistar rat, microcirculation dysfunction model, plasma; oral, 100 mg/kg Salvia miltiorrhiza stem-leaf extract FS): 8.87 ± 3.38 h
Cc1cc(-c2cc(OC(=O)c3ccccc3)ccc2Cl)cc2nnc(Nc3ccc(OCCN4CCCC4)cc3)nc12 — AUC(0-24 h) (Long Evans rat, sclera/choroid; topical, 1%): 13.1 µM·h
CCN1C(=O)CNc2ncc(-c3ccc(-c4nc[nH]n4)nc3C)nc21 — AUC(0-12h) (human, plasma; oral, 40 mg once daily, first dose): 1210 ng·h/mL
Cc1nc2cccc(OCC(C)(C)C(=O)NC(C)C)c2c(N)c1C(=O)O — Tmax (male Sprague-Dawley rat, plasma; dietary, 60 mg/kg/day, day 7): 0 h
CN(C)C/C=C/C(=O)Nc1cc2c(Nc3ccc(F)c(Cl)c3)ncnc2cc1O[C@H]1CCOC1 — t1/2 steady state (human; oral, 60 mg once daily, day 27): 40.5 h
NC(=O)CC[C@@H]1NC(=O)[C@H](Cc2ccccc2)NC(=O)[C@H](Cc2ccc(O)cc2)NC(=O)CCSSC[C@@H](C(=O)N2CCC[C@H]2C(=O)N[C@H](CCCN=C(N)N)C(=O)NCC(N)=O)NC(=O)[C@H](CC(N)=O)NC1=O — freeze-thaw stability (UPLC-MS/MS; human plasma; 3.05 pg/mL, three cycles): 92.7%
CCc1nc(C(N)=O)c(Nc2ccc(N3CCC(N4CCN(C)CC4)CC3)c(OC)c2)nc1NC1CCOCC1 — AUC(0-72h) (healthy humans, after high-fat breakfast, plasma; oral, 40 mg, single dose): 951 ng·h/mL
Cc1cc(C(=O)NC(C)(C)COc2cccc3c2C(N)=NS(=O)(=O)N3)cc(C)n1 — oral bioavailability (Sprague-Dawley rat, both sexes, plasma; oral, suspension in 1% methylcellulose): 0.15 to 0.43%
CON — elimination half-life (LC-MS/MS; cancer patients, plasma; iv infusion, 120 h, 16 cycles, with: oral temozolomide): 45.1 h
CCCCCCCCCCCCCCCCCCOP(=O)([O-])OC1CC[N+](C)(C)CC1 — terminal half-life (rhesus monkey, male, plasma; oral, 7 mg/kg, single dose, median of 3): 193 h
Cn1c(-c2ccc(C(N)=O)cc2F)nnc1C(C)(C)Oc1c(F)cc(Cl)cc1F — half-life range (healthy young Japanese subjects, plasma; oral, 10 mg once daily, day 18, 14 days dosing): 19.1 to 32 h
CCCC[C@@H]1NC(=O)[C@@H](NC(=O)[C@H](CCC(=O)O)NC(=O)CNC(=O)CN2CCN(CC(=O)O)CCN(CC(=O)O)CCN(CC(=O)O)CC2)CCCCNC(=O)C[C@@H](C(N)=O)NC(=O)[C@H](C(C)C)NC(=O)[C@@H]2CCCN2C(=O)[C@H](CCCNC(=N)N)NC(=O)CNC(=O)[C@H](Cc2c[nH]c3ccccc23)NC(=O)[C@H](CCCNC(=N)N)NC(=O)[C@@H](Cc2ccccc2)NC(=O)[C@H](Cc2c[nH]cn2)NC(=O)[C@H](CCC(=O)O)NC1=O [indium-111 labelled] — tissue uptake (normal C57 mice, lung; intravenous, 0.037 MBq, 24 h): 0.03 ± 0.02 %ID/g
COc1cccc(N2CCN(C3=Nc4c(F)cccc4[C@H](CC(=O)O)N3c3cc(C(F)(F)F)ccc3OC)CC2)c1 — mean residence time (healthy women, plasma; intravenous infusion, 240 mg, day 1, single dose, 30-min infusion): 7.31 ± 3.31 h
CCCC[C@H](NC(C)=O)C(=O)N[C@H]1CCC(=O)NC[C@@H](C(=O)N[C@@H](Cc2c[nH]c3ccccc23)C(N)=O)NC(=O)[C@H](CCCNC(=N)N)NC(=O)[C@@H](Cc2ccccc2)NC(=O)[C@H](Cc2c[nH]cn2)NC1=O — Vss/F (healthy human, both sexes, plasma; subcutaneous, 3.0 mg once daily, day 7, geometric mean): 316 L
C=CC(=O)Nc1cc(Nc2nccc(-c3cn(C)c4ccccc34)n2)c(OC)cc1N(C)CCN(C)C — MRT(0-t) (Sprague-Dawley rat, male, plasma; oral, 10 mg/kg, with: avitinib 30 mg/kg daily for 7 days): 11.2 ± 0.93 h
CN1C(=O)c2ccccc2CCC(=O)c2ccccc21 — kinetic solubility (nephelometry; aqueous buffer; 30 min, pH 6.5): > 100 µg/mL
C[N+]1(CC(=O)OC2CCCCC2)CCCCC1.[I-] — aqueous solubility (phosphate buffer with 2% DMSO; 90 min, pH 7.4, theoretical maximum 200 µM): 187 µM
Nc1nc2c(ncn2COCCO)c(=O)[nH]1 — Papp (rabbit New Zealand albino, male, excised cornea; 3 h, pH 5, 34 °C): 5.55 ± 0.71 ×10⁻⁶ cm/s
CC1(COc2ccc3c(c2)ncn3-c2ccc3cccc(N4CCC(N)CC4)c3n2)COC1 — AUC(0-48h) (human; oral, 100 mg/m2, first dose, crushed in applesauce; baseline: whole tablets): no effect
CC[C@H](C)[C@H](N)C(=O)O — Π (relative logD) (octanol/phosphate buffer; pH 7.0, N-4-nitrobenzoyl amino acid derivatives; baseline: glycine derivative): 1.59 ± 0.08
Cc1nc(-c2ccc(OCC(C)C)c(C#N)c2)sc1C(=O)O — AUC(0-24) (adults with gout, plasma; oral, 80 mg, with: verinurad 15 mg): 6600 ng·h/mL
CCCCCCCCCCCCCNCC(=O)N(CC(=O)N(CCCCN)CC(=O)N(CCN)CC(=O)N(CC(N)=O)[C@@H](C)c1ccccc1)[C@@H](C)c1ccccc1 — acetonitrile at elution (preparative RP-HPLC C18; water to acetonitrile gradient; 0.05% TFA in eluent; higher = more hydrophobic): 66.7%
Cc1c2c(n(-c3ccc(Cl)cc3Cl)c1-c1ccc(OS(=O)(=O)CCC(F)(F)F)cc1)CCN(N1CCCCC1)C2=O — plasma concentration (LC-MS/MS; cynomolgus monkey 5, plasma; intravenous infusion, 0.25 mg/kg, 90 min, total concentration mid-point of PET): 83 nM
O=C1N=C(N2CCOCC2)CN1c1ccc(Cl)cc1 — AUC(0-inf) (female beagle dog, plasma; oral, 30 mg/kg, fasted): 92400 ng·h/mL
CC(=O)Nc1ccc(O[C@@H]2O[C@H](C(=O)O)[C@@H](O)[C@H](O)[C@H]2O)cc1 — AUC(0-12 h) (healthy volunteers, both sexes, plasma; oral, dose not given, day 6, with: favipiravir, extended): 98300 ng·h/mL
C[C@]12CC[C@@H]3c4ccc(O)cc4CC[C@H]3[C@@H]1C[C@@H](O)[C@@H]2O — mean serum concentration (GC-MS; breast cancer women on NSAI, serum; vaginal, 0.03 mg daily, 6 h, day 28): 0.00733 ng/mL
CN[C@@H]1[C@H](O)[C@H](NC)[C@H]2O[C@]3(O)[C@H](O[C@@H]2[C@H]1O)O[C@H](C)C[C@H]3NC(=O)Cc1ccc(Cl)cn1 — parent remaining (glutathione conjugation; rat liver S9; 100 µM, 2 h, pH 7.4, with: glutathione 0.2 mM): 99.4%
CCCCCCCCc1ccc(CCC(N)(CO)COP(=O)(O)O)cc1 (centres unmarked) — lowest significant concentration (contraction; rat mesenteric arteries; baseline: solvent): ≥ 1 nM
Nc1ccc(-c2nc(-c3ccc(Oc4ccc(C(F)(F)F)cc4)cc3)no2)cc1 — distribution half-life (ICR mice, female, plasma; oral, 50 mg/kg): 13 h
C=CC(=C)CC[C@]1(C)[C@H](C)C[C@H](OC)[C@@]23C(=C[C@H](OC(=O)C(C)C)C[C@@H]12)[C@@H](OC(C)=O)O[C@H]3OC(C)=O — haemolysis (haemolysis; 500 µM): 17.7%
COc1cc(Nc2ncc3c(n2)-c2ccc(Cl)cc2C(c2c(F)cccc2OC)=NC3)ccc1C(=O)O — trough concentration (children with grade ≥2 toxicity, plasma; oral, 80 mg/m2, day 4, mean): 1500 ± 250 nM
COc1cccc(-c2ccc(NC(=O)C3=C(C(=O)O)CCC3)c(F)c2)c1 — AUC(0-t) (human, male, fasted, plasma; oral, 30 mg, single dose, geometric mean): 130000 ng·h/mL
O=C(c1cc(Cc2n[nH]c(=O)c3ccccc23)ccc1F)N1CCN(C(=O)C2CC2)CC1 — Cmin (cancer patients; oral, 400 mg twice daily, day 28, with: pegylated liposomal doxorubicin): 3900 ± 2600 ng/mL
COc1cc(OC)c(/C=C/S(=O)(=O)Cc2ccc(OC)c(NCC(=O)O)c2)c(OC)c1 — Tmax (cancer patients, phase I, plasma; oral, 280 mg twice daily, day 1 cycle 1): 1 ± 0.35 h
CC[C@H](C)[C@H](NC(=O)[C@H](Cc1ccccc1)NC(=O)[C@H](CC(=O)O)NC(=O)[C@H](CCCNC(=N)N)NC(=O)[C@H](C)NC(=O)[C@H](C)NC(=O)[C@H](CC(C)C)NC(=O)[C@H](CC(N)=O)NC(=O)[C@H](CC(=O)O)NC(=O)[C@H](CC(C)C)NC(=O)[C@@H](NC(=O)[C@@H](NC(=O)[C@H](CC(N)=O)NC(=O)[C@H](CCSC)NC(=O)[C@H](CCC(=O)O)NC(=O)[C@H](CC(=O)O)NC(=O)[C@H](CO)NC(=O)[C@H](Cc1ccccc1)NC(=O)[C@H](CO)NC(=O)CNC(=O)[C@H](CC(=O)O)NC(=O)CNC(=O)[C@@H](N)Cc1c[nH]cn1)[C@@H](C)O)[C@@H](C)CC)C(=O)N[C@@H](CC(N)=O)C(=O)N[C@@H](Cc1c[nH]c2ccccc12)C(=O)N[C@@H](CC(C)C)C(=O)N[C@H](C(=O)N[C@@H](CCC(N)=O)C(=O)N[C@H](C(=O)N[C@@H](CCCCN)C(=O)N[C@H](C(=O)N[C@H](C(=O)N[C@@H](CC(=O)O)C(=O)O)[C@@H](C)O)[C@@H](C)CC)[C@@H](C)O)[C@@H](C)CC — V/F difference (Japanese patients, mild renal impairment; subcutaneous, 0.05 mg/kg; baseline: normal renal function): ≤ 10%
C=CC(=C)CC[C@]1(C)[C@H](C)C[C@H](OC)[C@@]23C(=C[C@H](OC(=O)[C@@H](C)CC)C[C@@H]12)[C@@H](OC(C)=O)O[C@H]3OC(C)=O — haemolysis (haemolysis; 100 µM): 16.3%
CC(=O)c1nn(CC(=O)N2C[C@H](F)C[C@H]2C(=O)Nc2cccc(Br)n2)c2ccc(-c3cnc(C)nc3)cc12 — mean residence time (0-t) (Dutch Belted rabbit, plasma; oral, 15 mg/kg single dose): 5.58 h
CCCOc1ccc([C@H]2CNC(=O)N2c2ccc3[nH]cnc3c2)cc1 — AUC(0-tlast) (human volunteers fasted, plasma; oral solution, 400 mg single dose, day 1, geometric mean): 3540 ng·h/mL
CN1CCN(c2ccc3nc(-c4c(N)c5c(F)cccc5[nH]c4=O)[nH]c3c2)CC1 — t1/2 (patients, plasma; oral, 300 mg, day 1, maximum concurrent dosing, with: gemcitabine and capecitabine): 15.3 h
CC#CCn1c(N2CCC[C@@H](N)C2)nc2c1c(=O)n(Cc1nc(C)c3ccccc3n1)c(=O)n2C — AUC (male ICR mouse, liver; oral, 3 mg/kg, 24 h): 19700 ng·h/mL
Cc1c(C(=O)NN2CCCCC2)nn(-c2ccc(Cl)cc2Cl)c1-c1ccc(Cl)cc1 — plasma concentration (LC-MS/MS; cynomolgus monkey 2, plasma; intravenous infusion, 0.7 mg/kg, 90 min, total concentration mid-point of PET): 355 nM
N#Cc1ccc2c(c1)C(=O)CCc1ccccc1C(=O)N2 — kinetic solubility (nephelometry; aqueous buffer; 30 min, pH 6.5): 25 to 50 µg/mL (≈ 90.5 to 181 µM)
CN[C@@H]1[C@H](O)[C@H](NC)[C@H]2O[C@]3(O)[C@H](O[C@@H]2[C@H]1O)O[C@H](C)C[C@H]3NC(=O)Cc1ccc(O)cn1 — parent remaining (glutathione conjugation; rat liver S9; 100 µM, 2 h, pH 7.4, with: glutathione 0.2 mM): 98.6%
C[C@@H](c1ncncc1F)[C@](O)(Cn1cncn1)c1ccc(F)cc1F — trough concentration fold (Chinese patients, plasma; 200 mg, 12 h, multivariate regression; baseline: PM PPI users over NM non-users): ~5 fold
